Assay results gathered from unrelated publications.
Parts stem from different laboratories: compare values within a part only. Changes are numbered by the printed parent chain.

Block 1 — method: RNA Bind-n-Seq; form: RNA; sample: in vitro; tested at: 365 nM; relative to: no-protein control; direction: higher = stronger binding
Target: RNA binding protein fox-1 homolog 2, RRM domain, GST-SBP tag (RBFOX2, Homo sapiens, UniProt O43251-10, residues 100-194)
Setting: natural RNA segment, single round, ends assumed
All sequences stand within: GGGAGUUCUACAGUCCGACGAUC … UGGAAUUCUCGGGUGCCAA
Residues (chain): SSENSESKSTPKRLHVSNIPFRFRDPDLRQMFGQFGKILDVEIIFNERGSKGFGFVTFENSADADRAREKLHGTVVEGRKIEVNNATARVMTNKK
Strand	RBNS enrichment (R)
AUCUUCUGUUUCUUUGAAUAGAAAGCACCACAGUGUUUUGCACUUGCCUCCAGUAAAGUGCCCUGGGAAGGGAGCUGGGCAGUGUUUGUGGACGAGAGACUGUAACGAUG	0.636
UAUACCUCACGUACUGUGUACUUUGUACAUAUAUUUUACCUUUUAUACCUAUGUUCGAUUUUGUUUUGUUUUGUUUUGUUCUGGCUUUGAGGCUUGUUUUGUUGUCUGUG	15.9
ACUCAAAUCAGCUGGCUAUUUGAAGAUGGCAAAGAAUAUAGUUCUGAAAUUUUAUUUUUCCACAACAGGGUGAUUGGCAGUGGUUGUUCUCCCUUUUUCUGACAGUGUGG	0.954
UAGAUGUACAUAUUGUGUCGGUAGGGCUAUGAGGCAUGUUACAGGAAUGUAAUUUUCUCAGAAUUUACACUCACUCGCAGUCAUUUAUUUAAAAAGAUAAAACAAGAUAA	0.435
AAAAAUCUUAUAAGGUUUUACCCUUGAUACGGAAUUUACACAGGUAGGGAGUGUUUAGUGGACAAUAGUGUAGGUUAUGGAUGGAGGUGUCGGUACUAAAUUGAAUAACG	1.78
UCGUGGUUGGGAUUAGACCUGUUUGGAAACAGCUGCUGUCAGUGAUGCUCCGGUGUGCCAAGCCCCAGCUCCGAUGUCUGCUUUGUGCAAUUUGCCUUUACCUCACCAAA	0.247
GGCUAAUUAAGAAUGAUAUACUAUGUACACCCAAUAAGCUGUACUAGAAUGAAUAAAUUACUGAUAAGGUUACAAAUAGGUAAAUGUCACACUUCUGUUAAAAUGCAGGA	1.19
GCAAGCCCUACCUAAGGAACGGCUCUUGGAAGACUUCAUAAUGAUGCUGUCUCUGGCUGGGCCUUGGGGACACUUGCCACAUGGGUCCCAAAUGGCUGGGCAAGGGUGAC	0.298

Block 2 — method: competition protein-binding microarray; form: double-stranded DNA, one strand shown; sample: in vitro; tested at: 2 µM; together with: Cbf1 competitor, 0.05 µM; direction: higher = stronger binding; all sequences stand within: … GTCTTGATTCGCTTGACGCTGCTG
Target: Phosphate system positive regulatory protein PHO4, full length, GST-tagged (PHO4, Saccharomyces cerevisiae, UniProt P07270, residues 1-312)
Setting: whole 60-bp probe, lowest competitor level
Construct (chain): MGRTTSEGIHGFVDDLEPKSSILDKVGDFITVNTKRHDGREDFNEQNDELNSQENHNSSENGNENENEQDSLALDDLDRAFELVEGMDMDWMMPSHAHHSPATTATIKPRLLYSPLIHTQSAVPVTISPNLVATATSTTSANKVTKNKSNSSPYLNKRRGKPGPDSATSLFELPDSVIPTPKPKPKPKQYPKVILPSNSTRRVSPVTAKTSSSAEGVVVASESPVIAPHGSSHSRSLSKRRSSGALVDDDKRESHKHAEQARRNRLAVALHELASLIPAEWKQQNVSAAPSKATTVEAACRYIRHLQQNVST
Strand	fluorescence intensity
ATGCTACTAGTAACACACATGTACAGCCTGTTGCAA	8180 a.u.
TGCGCAACAACTTGTAGGGTGGGTGTATGTCTAGAA	4650 a.u.
AGATTGCCTCCCTGACATGTGGTGGCAGAAAACCTG	9720 a.u.
GTCAAGAACGGTGTCCACATGGTCTTCGCTTCTTTC	8860 a.u.
GTCTTGTCTCATTTTCACGTGCTGTTCCCCACTTCA	13600 a.u.
TCTAACTGGGCCCTTCACGTTTCTGACAATAGTTCT	9460 a.u.
CTCTTTCAGATTCGTCACGATTTTATGAAAGAAATA	6260 a.u.
CGTCCTAGTGATTGTGGAGTGGGTGCCATGAGGAAG	6990 a.u.
TGCGCAACAACTTGCAGAGTGGGTGTATGTCTAGAA	5410 a.u.
AAAGCGGTAATTTGTCTAGTGGGTGCAGATATCTAT	4030 a.u.
AAAGCGGTAATTTGTAATGTGGGTGCAGATATCTAT	4950 a.u.

Block 3 — target: CCND1, cyclin fold, Cln2 fusion (human); method: yeast growth competition, sequencing; sample: yeast; setting: strong parent motif; relative to: not given; direction: higher = stronger binding
Starting sequence: SCAPER docking peptide (human); SNARRSLNFGGST
Variant	normalised enrichment score
S6T	0.865
T13D	2.14
N2T	0.963
R4A	0.839
S12M	0.404
S6P	1.11
R4S	-0.328
S6R	2.88
R4V	1.35
A3S	0.102

Mixed results
Substance	target	test	test system	setting	how to read	endpoint	result
PhoQ, residues 284 288 289 292 302 303 AGGCYF	PhoP, residues 12 14 15 18 19 TQAIL (Escherichia coli, UniProt P23836)	Sort-seq, refers to: YFP reporter	E. coli	PhoQ-PhoP variant library, together with: 10 µM Mg2+	relative to: high Mg2+ state, higher = stronger signaling	fold induction	2.74

Repeated from above (block 1):
Strand	RBNS enrichment (R)
UAGAUGUACAUAUUGUGUCGGUAGGGCUAUGAGGCAUGUUACAGGAAUGUAAUUUUCUCAGAAUUUACACUCACUCGCAGUCAUUUAUUUAAAAAGAUAAAACAAGAUAA	0.435
AAAAAUCUUAUAAGGUUUUACCCUUGAUACGGAAUUUACACAGGUAGGGAGUGUUUAGUGGACAAUAGUGUAGGUUAUGGAUGGAGGUGUCGGUACUAAAUUGAAUAACG	1.78
UCGUGGUUGGGAUUAGACCUGUUUGGAAACAGCUGCUGUCAGUGAUGCUCCGGUGUGCCAAGCCCCAGCUCCGAUGUCUGCUUUGUGCAAUUUGCCUUUACCUCACCAAA	0.247
